# Published values of several laboratories.
# Each line is one published result; not all experiments were run side by side. Values joined by “and” are separate records of one study, mostly repeats; a detail may differ. ± gives the spread as reported.
SMILES,target or system,assay,system,conditions,how to read,quantity,value
COc1cnc(-n2cnc(C)n2)c2[nH]cc(C(=O)C(=O)N3CCN(C(=O)c4ccccc4)CC3)c12,THP-1,pyroptotic LDH release,,"2 µM, 40 min, together with: LPS then nigericin",,inhibition,-5.67%
Cn1cc(Nc2nccc(-c3ccc4c(c3)CN(C3COC3)CC[C@H]4NC(=O)c3cn(C(C)(C)C)nn3)n2)cn1,mouse splenic B cells,refers to: VEGF signalling,,"30 mg/kg, IgD-activated in vivo","relative to: vehicle, direction not given",pathway activation z-score,1.39
CCn1cc(-c2cc(Cn3ccoc3=N)cc3c2CCN([C@@H](C)c2cc(OC)ccn2)C3=O)c(C(F)(F)F)n1,OCI-Ly10,"cell growth, inhibitor",,120 h,,EC50,9.77 nM
COc1ccc(NC(=S)N/N=C/c2cccc3cc4ccccc4nc23)cc1,HeLa,PI flow cytometry,,"IC50, 48 h",,cells in G1 phase,43.9%
O=C(Nc1nc2cccc(-c3ccc(CN4CCS(=O)(=O)CC4)cc3)n2n1)C1CC1,,,rheumatoid arthritis patients,"oral, 100 mg twice daily, 4 weeks, TEAE regardless of relatedness",,patients with increased blood calcium,8.3%
COc1ccc(O)c(C(=O)O)c1,THP-1,pyroptotic LDH release,,"2 µM, 40 min, together with: LPS then nigericin",,inhibition,3.28%
Nc1nc(Cl)nc2c1ncn2[C@@H]1O[C@H](CO)[C@@H](O)[C@H]1O,HEK293T ATF4-FLuc reporter,"ATF4 reporter gene, activator, luciferase reporter",,,,EC50,955 nM
C=CC(=O)N1CCC(Oc2cc3c(Nc4ccc(Cl)c(Cl)c4F)ncnc3cc2OC)CC1,NCI-H2073 EGFR SVD knock-in,"cell proliferation, CellTiter-Glo",,,relative to: knock-in over parental NCI-H2073,selectivity ratio,0.045
CC(=O)OCC1=C(C(=O)O)N2C(=O)[C@@H](NC(=O)Cc3cccs3)[C@H]2SC1,THP-1,pyroptotic LDH release,,"2 µM, 40 min, together with: LPS then nigericin",,inhibition,41.5%
C[C@H](CS)C(=O)N1CCC[C@H]1C(=O)O,HUVEC,western blot,,"10, 100, 1 µM, together with: angiotensin II",,NOX2 and NOX4 protein levels,decreased
O=C(NO)c1ccc(C2=Nc3ccccc3Oc3ccccc32)cc1,HEK293T ATF4-FLuc reporter,"ATF4 reporter gene, activator, luciferase reporter",,,,EC50,2230 nM
O=C(/C=C/C=C/C=C/C1CCCCC1)NC1=C[C@@](O)(/C=C/C=C/C=C/C(=O)NC2=C(O)CCC2=O)[C@@H]2O[C@@H]2C1=O,COR-L105,"cell growth, CellTiter-Glo",,78 h,,GI50,16100 nM
C=CC1=C(C)c2cc3[n-]c(cc4nc(cc5[n-]c(cc1n2)c(C)c5C=C)C(C)=C4CCC(=O)O)c(CCC(=O)O)c3C.[Zn+2],SH-SY5Y,"RNA-seq, refers to: GREM1 mRNA",,"5 µM, 5 h",relative to: untreated cells,fold change,2.26
Cc1ccc(CNC(=O)Cn2cc(CSc3nc4ccccc4[nH]3)nn2)cc1,Caco-2,MTT,,62.5 ppm,,cytotoxicity,81%
Cc1cccc(-c2[nH]c(CNc3ccccc3F)nc2-c2ccc3ncnn3c2)n1,MM1.S,XTT,,0.4 µM,relative to: untreated,viability,93%
CNc1nc(-c2cccc(NC(=O)c3ccc(C(=O)OC)cc3)c2)c2cc(OC)c(OC)cc2n1,HEK293T ATF4-FLuc reporter,"ATF4 reporter gene, activator, luciferase reporter",,,,EC50,> 9960 nM
C=Cc1c2[n-]c(c1C)/C=c1\[n-]/c(c(C)c1C=C)=C\c1[n-]c(c(CCC(=O)O)c1C)/C=c1\[n-]c(c(C)c1CCC(=O)O)=C2.[Sn+4],SH-SY5Y,"RNA-seq, refers to: TGFB1I1 mRNA",,"5 µM, 5 h",relative to: untreated cells,fold change,1.92
CN(C)C/C=C/C(=O)Nc1cc2c(Nc3ccc(F)c(Cl)c3)ncnc2cc1O[C@H]1CCOC1,"SW-620/AD300 spheroids, P-gp overexpressing",CellTiter-Glo 3D,,"3 µM, 12 days",relative to: untreated,viability,106 ± 7.3%
N#Cc1ccc2c(CN3CCOCC3)cc(-c3ccc([C@H]4CCC(=O)N4)cc3)nc2c1,THP-1,"decreased, refers to: IL6",,"10 µM, together with: CML-HSA",relative to: vehicle,mRNA level,decreased
COc1cc2c(c(O)c1OC)C(=O)c1c(cc(C)c(O[C@@H]3O[C@H](CO)[C@@H](O)[C@H](O)[C@H]3O)c1OC)C2=O,HK-2 co-cultured with HepaRG,MTT,,"66.67 µM, 24 h",relative to: untreated control,cell viability,81.8 ± 11.1%
CC1=C(C)C(=O)C(CCCCCCCCCC[P+](c2ccccc2)(c2ccccc2)c2ccccc2)=CC1=O,HEK293T ATF4-FLuc reporter,"ATF4 reporter gene, activator, luciferase reporter",,,,EC50,374 nM
CCn1cc(-c2cc(Cn3ccnc3)cc3c2CCN([C@H](c2cc(OC)ccn2)C2CC2)C3=O)c(C(F)(F)F)n1,SNU-423,"cell growth, inhibitor",,120 h,,EC50,21000 nM
CC(C)NCC(O)c1ccc(O)c(O)c1 (centres unmarked),mouse ventricular cardiomyocytes,,,"dose not given, 0.271 s",,sarcomere length,1.8 µm
COc1c(O[C@@H]2O[C@H](CO)[C@@H](O)[C@H](O)[C@H]2O)c(C)cc2c1C(=O)c1c(O)cccc1C2=O,HK-2 co-cultured with HepaRG,MTT,,"133.33 µM, 24 h",relative to: untreated control,cell viability,59.1 ± 7.58%
CN1CC[C@H](c2c(O)cc(O)c3c(=O)cc(-c4ccccc4Cl)oc23)[C@H](O)C1,THP-1,pyroptotic LDH release,,"2 µM, 40 min, together with: LPS then nigericin",,inhibition,-5.67%
CN(C)CCOc1ccc2[nH]c(C(=O)NCC#Cc3ccc(C(=O)NO)cc3)cc2c1,HEK293T ATF4-FLuc reporter,"ATF4 reporter gene, activator, luciferase reporter",,,,EC50,596 nM
CSc1cc(Oc2ccnc3[nH]c(=O)cnc23)ccc1NC(=O)Nc1cc(C(C)(C)C)nn1-c1ccccc1,patient-derived cell clone B (sample A),"reverse phase protein array, refers to: p53 pSer15",human,"1 µM, 4 h",relative to: DMSO,phospho/total p53 ratio,0.34
CC(C)[C@H](NC(=O)[C@H](Cc1ccc(O)cc1)NC(=O)[C@H](Cc1ccc(O)cc1)NC(=O)[C@@H]1CCCN1C(=O)[C@H](CCC(=O)O)NC(=O)[C@H](CCC(=O)O)NC(=O)[C@H](Cc1c[nH]c2ccccc12)NC(=O)[C@@H]1CCCN1C(=O)[C@@H](NC(=O)[C@H](CCC(N)=O)NC(=O)c1ccc2c(c1)C(=O)OC21c2ccc(O)cc2Oc2cc(O)ccc21)C(C)C)C(=O)N[C@H](C(=O)N[C@@H](CCCCN)C(=O)N[C@@H](CCCCN)C(=O)N[C@@H](CO)C(=O)N[C@@H](CO)C(=O)NCC(=O)NCC(N)=O)C(C)C,,,"human, plasma","intravenous infusion, 189.6 mg, predose, day 1",,plasma concentration,not detected
CCCCN1CCN(c2ccc3nc(-c4ccc5nc(-c6cc(OC)ccc6OC)[nH]c5c4)[nH]c3c2)CC1,OVCAR-8,SRB,,"10 µM, 48 h",,growth percent,97.5%
COc1cc(-c2oc3cc(O)cc(O)c3c(=O)c2O)ccc1O,Caco-2/THP-1 co-culture,TEER,,"concentration not given, together with: LPS 50 ng/mL",relative to: control,transepithelial electrical resistance,82.1 ± 5.1%
COc1cnc2cccc(N3CCc4c(cc(Cn5ccnc5C)cc4-c4cn(C)nc4C(F)(F)F)C3=O)c2c1,COR-L105,"cell growth, inhibitor",,120 h,,EC50,> 30000 nM
CCCOc1ccn2c(C(C)=O)cc(-c3ccccc3S(C)(=O)=O)c2c1,THP-1,pyroptotic LDH release,,"2 µM, 40 min, together with: LPS then nigericin",,inhibition,-11.3%
O=C(O)CCc1ccc(O)cc1,"coculture, Caco-2, THP-1",ELISA,,"250 ng/mL, 8 h, together with: LPS, IFNγ, ATP",relative to: untreated control,IL-1β level,5.9 ± 2.2 fold change
COc1cc(/C=C/C(=O)N2CCC=CC2=O)cc(OC)c1OC,MDA-MB-468,"qRT-PCR, refers to: XIAP",,"30 µM, 6 h",relative to: time zero,mRNA level,69 ± 8.9%
CC(C)(C)NC(=O)c1cncn1C1CCN(c2ccc(-c3nnc(C(F)(F)F)o3)cn2)CC1,HDMEC,"qPCR, refers to: TSC22D1 isoform 3",,"concentration not given, unit not given",relative to: DMSO,mRNA level,1.52
Nc1cccc2c1C(=O)N(C1CCC(=O)NC1=O)C2=O (centres unmarked),MM1.S,XTT,,0.4 µM,,viability,64% and 49% and 36%
O=c1c(O)c(-c2ccc(O)cc2)oc2cc(O)cc(O)c12,Caco-2/THP-1 co-culture,,,"0.25 µg/mL, together with: LPS 250 ng/mL",,kynurenine level,78.2 ± 1.3 % change
O=C(NC[C@H]1CN(c2ccc(N3CCOCC3=O)cc2)C(=O)O1)c1ccc(Cl)s1,THP-1,pyroptotic LDH release,,"2 µM, 40 min, together with: LPS then nigericin",,inhibition,0.02%
O=C(O)CCc1ccc(O)c(O)c1,Caco-2/THP-1 co-culture,TEER,,"concentration not given, together with: LPS 1000 ng/mL",relative to: control,transepithelial electrical resistance,85.7 ± 5.8%
Cc1cc(C)n(-c2nc(-c3ccc(Cl)cc3)c3c(NC(=O)c4ccccc4)nnc-3[nH]2)n1,SF-268,SRB,,"10 µM, NCI60 single-dose screen",relative to: untreated,cell growth,98.1%
CCc1c(-c2ccccc2)c(-c2ccccc2)nn1-c1ccccc1-c1cccc(OCC(=O)O)c1,mouse osteoclasts,"RT-qPCR, refers to: Fosl2",,"concentration not given, unit not given",relative to: bone marrow macrophages,mRNA level,0.611 and 0.599 and 0.646
Cn1cc(-c2ccc(-c3cncc(Cl)c3N3CCC4(CCNC4=O)CC3)cc2)cn1,COLO 205,"gene expression, microarray, refers to: PRDM8 mRNA",,"concentration not given, 6 h",relative to: untreated cells,log2 fold change,4.13
O=C(/C=C/c1cccc(S(=O)(=O)Nc2ccccc2)c1)NO,HEK293T ATF4-FLuc reporter,"ATF4 reporter gene, activator, luciferase reporter",,,,EC50,882 nM
CCNC(=O)c1noc(-c2cc(C(C)C)c(O)cc2O)c1-c1ccc(CN2CCOCC2)cc1,human iPSC cardiomyocytes,plate-normalised,,"concentration not given, hit retest","relative to: vehicle controls, SDs below control",MyBP-C level change,6.77 SD

# For quick reference, copied from above:
SMILES,target or system,assay,system,conditions,how to read,quantity,value
Cc1cc(C)n(-c2nc(-c3ccc(Cl)cc3)c3c(NC(=O)c4ccccc4)nnc-3[nH]2)n1,SF-268,SRB,,"10 µM, NCI60 single-dose screen",relative to: untreated,cell growth,98.1%
CCc1c(-c2ccccc2)c(-c2ccccc2)nn1-c1ccccc1-c1cccc(OCC(=O)O)c1,mouse osteoclasts,"RT-qPCR, refers to: Fosl2",,"concentration not given, unit not given",relative to: bone marrow macrophages,mRNA level,0.611 and 0.599 and 0.646
Cn1cc(-c2ccc(-c3cncc(Cl)c3N3CCC4(CCNC4=O)CC3)cc2)cn1,COLO 205,"gene expression, microarray, refers to: PRDM8 mRNA",,"concentration not given, 6 h",relative to: untreated cells,log2 fold change,4.13
O=C(/C=C/c1cccc(S(=O)(=O)Nc2ccccc2)c1)NO,HEK293T ATF4-FLuc reporter,"ATF4 reporter gene, activator, luciferase reporter",,,,EC50,882 nM
